Measured values gathered from unrelated publications.
Each line is one published result; not all experiments were run side by side. ± marks the error that the study gave.
Effect on: binding
PTH1R: Parathyroid hormone/parathyroid hormone-related peptide receptor (PTH1R, Homo sapiens, UniProt Q03431)
UniProt Q03431, sequence (whole entry, looked up): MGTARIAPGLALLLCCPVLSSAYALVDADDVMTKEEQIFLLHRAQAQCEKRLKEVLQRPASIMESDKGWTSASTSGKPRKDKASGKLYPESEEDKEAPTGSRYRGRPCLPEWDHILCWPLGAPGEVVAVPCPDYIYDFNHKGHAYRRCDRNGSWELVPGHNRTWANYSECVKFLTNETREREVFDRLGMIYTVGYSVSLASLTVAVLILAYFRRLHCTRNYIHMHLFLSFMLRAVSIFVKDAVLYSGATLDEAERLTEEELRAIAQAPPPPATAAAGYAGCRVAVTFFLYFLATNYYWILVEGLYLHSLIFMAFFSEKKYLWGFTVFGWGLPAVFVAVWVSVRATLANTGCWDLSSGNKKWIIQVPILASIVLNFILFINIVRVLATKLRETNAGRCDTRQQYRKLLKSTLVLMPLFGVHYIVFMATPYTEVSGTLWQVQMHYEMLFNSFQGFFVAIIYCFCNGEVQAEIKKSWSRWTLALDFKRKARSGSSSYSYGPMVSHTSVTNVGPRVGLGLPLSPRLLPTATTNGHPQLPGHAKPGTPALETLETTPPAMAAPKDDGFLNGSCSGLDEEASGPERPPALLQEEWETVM
Alpha-mannosidase: Alpha-mannosidase (Canavalia ensiformis, UniProt C0HJB3)
UniProt C0HJB3, sequence (whole entry, looked up): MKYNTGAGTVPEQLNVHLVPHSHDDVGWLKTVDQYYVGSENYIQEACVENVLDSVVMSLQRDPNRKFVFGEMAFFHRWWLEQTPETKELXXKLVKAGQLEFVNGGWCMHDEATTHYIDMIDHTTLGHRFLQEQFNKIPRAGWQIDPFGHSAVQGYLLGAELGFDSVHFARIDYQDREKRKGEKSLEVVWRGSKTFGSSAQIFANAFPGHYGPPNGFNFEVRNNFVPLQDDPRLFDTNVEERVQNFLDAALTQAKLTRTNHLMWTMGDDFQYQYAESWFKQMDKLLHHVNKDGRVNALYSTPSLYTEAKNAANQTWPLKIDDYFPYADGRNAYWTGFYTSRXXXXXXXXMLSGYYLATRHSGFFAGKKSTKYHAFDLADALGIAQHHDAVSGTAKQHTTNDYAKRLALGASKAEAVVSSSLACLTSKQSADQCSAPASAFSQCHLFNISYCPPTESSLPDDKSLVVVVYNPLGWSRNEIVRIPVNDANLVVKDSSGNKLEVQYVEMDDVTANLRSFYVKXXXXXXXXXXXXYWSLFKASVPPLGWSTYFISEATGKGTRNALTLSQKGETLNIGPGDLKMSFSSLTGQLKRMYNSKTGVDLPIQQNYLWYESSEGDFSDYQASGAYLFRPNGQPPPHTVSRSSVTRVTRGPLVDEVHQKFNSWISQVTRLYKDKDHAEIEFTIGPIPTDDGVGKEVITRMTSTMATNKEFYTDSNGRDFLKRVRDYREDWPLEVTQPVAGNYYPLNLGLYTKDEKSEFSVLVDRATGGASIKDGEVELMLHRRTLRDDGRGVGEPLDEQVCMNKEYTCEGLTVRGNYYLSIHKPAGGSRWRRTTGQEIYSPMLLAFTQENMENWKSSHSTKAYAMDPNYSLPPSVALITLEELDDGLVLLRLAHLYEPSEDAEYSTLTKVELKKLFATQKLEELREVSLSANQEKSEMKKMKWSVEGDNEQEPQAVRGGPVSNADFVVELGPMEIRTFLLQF
ACTA1: Actin, alpha skeletal muscle (ACTA1, Oryctolagus cuniculus, UniProt P68135)
UniProt Q7XKC8, sequence (whole entry, looked up): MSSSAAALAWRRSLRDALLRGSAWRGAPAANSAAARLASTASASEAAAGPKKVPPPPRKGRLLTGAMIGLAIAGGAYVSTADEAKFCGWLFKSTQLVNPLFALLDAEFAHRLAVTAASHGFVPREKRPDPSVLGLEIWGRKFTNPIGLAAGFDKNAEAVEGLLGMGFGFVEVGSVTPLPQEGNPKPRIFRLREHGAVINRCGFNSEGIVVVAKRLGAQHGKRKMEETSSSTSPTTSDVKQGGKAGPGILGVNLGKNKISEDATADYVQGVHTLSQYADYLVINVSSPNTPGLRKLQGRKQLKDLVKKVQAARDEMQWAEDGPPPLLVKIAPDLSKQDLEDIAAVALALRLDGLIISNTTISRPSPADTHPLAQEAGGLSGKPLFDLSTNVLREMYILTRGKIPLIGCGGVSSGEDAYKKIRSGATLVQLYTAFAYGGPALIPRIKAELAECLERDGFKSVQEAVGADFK
UniProt Q07021, sequence (whole entry, looked up): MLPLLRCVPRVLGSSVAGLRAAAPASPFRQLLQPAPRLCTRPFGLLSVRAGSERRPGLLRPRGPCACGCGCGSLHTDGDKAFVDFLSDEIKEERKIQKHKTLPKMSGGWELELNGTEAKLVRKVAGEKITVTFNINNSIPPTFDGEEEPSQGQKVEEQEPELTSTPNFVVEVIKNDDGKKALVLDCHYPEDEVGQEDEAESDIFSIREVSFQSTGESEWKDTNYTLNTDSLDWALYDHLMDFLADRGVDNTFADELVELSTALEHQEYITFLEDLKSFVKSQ

target | assay | test system | conditions | kon [M⁻¹ s⁻¹] | SMILES
PTH1R | NanoBRET |  | pH 7.5, HEPES buffer | 760000 ± 100000 | CSCC[C@H](NC(=O)[C@H](CC(C)C)NC(=O)[C@H](CCC(N)=O)NC(=O)[C@H](Cc1c[nH]cn1)NC(=O)[C@H](CCC(=O)O)NC(=O)[C@H](CO)NC(=O)[C@@H](NC(=O)[C@@H](N)CO)C(C)C)C(=O)N[C@@H](Cc1c[nH]cn1)C(=O)N[C@@H](CC(N)=O)C(=O)N[C@@H](CC(C)C)C(=O)NCC(=O)N[C@@H](CCCCN)C(=O)N[C@@H](Cc1c[nH]cn1)C(=O)N[C@@H](CC(C)C)C(=O)N[C@@H](CC(N)=O)C(=O)N[C@@H](CO)C(=O)N[C@@H](CCSC)C(=O)N[C@@H](CCC(=O)O)C(=O)N[C@@H](CCCNC(=N)N)C(=O)N[C@H](C(=O)N[C@@H](CCC(=O)O)C(=O)N[C@@H](Cc1c[nH]c2ccccc12)C(=O)N[C@@H](CC(C)C)C(=O)N[C@@H](CCCNC(=N)N)C(=O)N[C@@H](CCCCN)C(=O)N[C@@H](CCCCN)C(=O)N[C@@H](CC(C)C)C(=O)N[C@@H](CCC(N)=O)C(=O)N[C@@H](CC(=O)O)C(=O)N[C@H](C(=O)N[C@@H](Cc1c[nH]cn1)C(=O)N[C@@H](CC(N)=O)C(=O)N[C@@H](Cc1ccccc1)C(=O)N[C@@H](CCCCNC(=O)c1ccc2c(c1)C1(OC2=O)c2ccc(N(C)C)cc2Oc2cc(N(C)C)ccc21)C(N)=O)C(C)C)C(C)C
PYRD (Oryza sativa, UniProt Q7XKC8) | SPR |  |  | 6.16e+06 | CN1C[C@H](c2cccc(C(F)(F)F)c2)[C@@H](C(=O)Nc2ccccc2F)C1=O
Alpha-mannosidase | surface plasmon resonance |  | 25 °C | 3.91 | O=c1c2ccccc2nc2n1CCC2O (stereo not drawn)
PTH1R | NanoBRET | HEK293 stably expressing receptor | room temperature, 0.02% sodium azide, with: 5 µM coelenterazine h | 590000 ± 100000 | CSCC[C@H](NC(=O)[C@H](CO)NC(=O)[C@H](CC(N)=O)NC(=O)[C@H](CC(C)C)NC(=O)[C@H](Cc1c[nH]cn1)NC(=O)[C@H](CCCCN)NC(=O)CNC(=O)[C@H](CCCCN)NC(=O)[C@H](CC(=O)O)NC(=O)[C@H](Cc1c[nH]cn1)NC(=O)[C@H](CC(C)C)NC(=O)[C@H](CC(C)C)NC(=O)[C@H](CCC(N)=O)NC(=O)[C@H](Cc1c[nH]cn1)NC(=O)[C@H](CCC(=O)O)NC(=O)[C@H](CO)NC(=O)[C@@H](NC(=O)[C@H](C)N)C(C)C)C(=O)N[C@@H](CCC(=O)O)C(=O)N[C@@H](CCCNC(=N)N)C(=O)N[C@H](C(=O)N[C@@H](CCC(=O)O)C(=O)N[C@@H](Cc1c[nH]c2ccccc12)C(=O)N[C@@H](CC(C)C)C(=O)N[C@@H](CCCNC(=N)N)C(=O)N[C@@H](CCCCN)C(=O)N[C@@H](CCCCN)C(=O)N[C@@H](CC(C)C)C(=O)N[C@@H](CCC(N)=O)C(=O)N[C@@H](CC(=O)O)C(=O)N[C@H](C(=O)N[C@@H](Cc1c[nH]cn1)C(=O)N[C@@H](CC(N)=O)C(=O)N[C@@H](Cc1ccccc1)C(=O)N[C@@H](CCCCNC(=O)c1ccc2c(c1)C1(OC2=O)c2ccc(N(C)C)cc2Oc2cc(N(C)C)ccc21)C(N)=O)C(C)C)C(C)C
Alpha-mannosidase | surface plasmon resonance |  | 25 °C | 6.12 | CC(=O)C=C=C1C(C)(C)C[C@H](O)C[C@@]1(C)O
ACTA1 | SPR |  | pH 7 | 1450 | CC(C)[C@H](NC(=O)[C@H](CCCCN)NC(=O)[C@H](C)NC(=O)[C@H](CCCCN)NC(=O)CNC(=O)[C@H](CS)NC(=O)[C@@H](NC(=O)[C@H](CCCCN)NC(=O)[C@@H](N)CO)[C@@H](C)O)C(=O)N[C@H](C(=O)NCC(=O)N[C@@H](CCCNC(=N)N)C(=O)N[C@@H](Cc1c[nH]c2ccccc12)C(=O)N[C@@H](CCCCN)C(=O)O)[C@@H](C)O
C1QBP (Homo sapiens, UniProt Q07021) | SPR |  |  | 30900 | C[C@@H](O)[C@@H]1NC(=O)[C@H](CCCNC(=N)N)NC(=O)[C@H](CCCCN)NC(=O)[C@H](CC(N)=O)NC(=O)CNC(=O)[C@@H](N)C[Se][Se]C[C@@H](C(=O)O)NC(=O)CNC(=O)[C@H](CCCNC(=N)N)NC1=O
ACTA1 | SPR |  | pH 7 | 3810 | CC(C)[C@H](NC(=O)[C@H](CCCCN)NC(=O)[C@H](C)NC(=O)[C@H](CC(N)=O)NC(=O)CNC(=O)[C@H](CCCNC(=N)N)NC(=O)[C@@H](NC(=O)[C@H](CCCCN)NC(=O)[C@@H](N)CO)[C@@H](C)O)C(=O)N[C@H](C(=O)NCC(=O)N[C@@H](CCCNC(=N)N)C(=O)N[C@@H](Cc1c[nH]c2ccccc12)C(=O)N[C@@H](CCCCN)C(=O)O)[C@@H](C)O
Alpha-mannosidase | surface plasmon resonance |  | 25 °C | 16.2 | COc1cc(C(O)C(CO)c2ccc(O)c(OC)c2)ccc1O (stereo not drawn)
